Values quoted from earlier work, collected from citations in different studies.
Each line is one published result; not all experiments were run side by side. ± marks the error that the study gave. In brackets after ≈: the same amount, converted by molar mass.
lasR: Transcriptional activator protein LasR (lasR, Pseudomonas aeruginosa, UniProt P25084)
Chain of UniProt P25084 (whole entry, looked up): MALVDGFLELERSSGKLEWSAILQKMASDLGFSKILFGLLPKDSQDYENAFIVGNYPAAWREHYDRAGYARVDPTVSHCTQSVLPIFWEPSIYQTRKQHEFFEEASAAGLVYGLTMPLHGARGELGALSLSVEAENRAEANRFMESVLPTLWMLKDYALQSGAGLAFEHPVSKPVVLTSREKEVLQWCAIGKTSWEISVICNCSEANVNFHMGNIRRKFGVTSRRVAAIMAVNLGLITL

CC[C@H](C)[C@H](NC(=O)[C@H](CCCCN)NC(=O)[C@H](CCC(N)=O)NC(=O)[C@H](C)NC(=O)[C@H](Cc1ccc(O)cc1)NC(=O)[C@H](CCC(=O)O)NC(=O)[C@H](CCCCN)NC(=O)[C@H](C)NC(=O)[C@H](CC(C)C)NC(=O)[C@H](CCCNC(=N)N)NC(=O)[C@H](CC(C)C)NC(=O)CNC(=O)[C@H](CCCCN)NC(=O)[C@H](C)NC(=O)[C@H](CCCNC(=N)N)NC(=O)[C@H](CC(C)C)NC(=O)[C@H](CCCCN)NC(=O)[C@H](CCC(N)=O)NC(=O)[C@H](C)NC(=O)[C@H](CC(C)C)NC(=O)[C@H](CCCCN)NC(=O)[C@H](CO)NC(=O)[C@H](CCCCN)NC(=O)[C@@H](N)Cc1c[nH]c2ccccc12)C(=O)N[C@@H](CC(C)C)C(=O)N[C@@H](CC(N)=O)C(=O)O  MIC (Pseudomonas aeruginosa): 2 µM (≈ 6.11 µg/mL)
CCC(=O)OC1C(=O)C2(C)C(O)CC3OCC3(OC(C)=O)C2C(OC(=O)c2cccc(OC(F)(F)F)c2)C2(O)CC(OC(=O)C(O)C(C=C(C)C)NC(=O)OC(C)(C)C)C(C)=C1C2(C)C (centres unmarked)  IC50 (CFPAC-1; cytotoxicity): 0.75 nM
CC[C@H](C)[C@H](NC(=O)CNC(=O)[C@H](CC(=O)O)NC(=O)[C@H](CCCNC(=N)N)NC(=O)[C@@H](NC(=O)[C@H](CC(N)=O)NC(=O)[C@H](CCCNC(=N)N)NC(=O)CNC(=O)[C@@H](NC(=O)[C@H](CCCCN)NC(=O)[C@H](CCC(=O)O)NC(=O)[C@H](CC(C)C)NC(=O)[C@H](CCCCN)NC(=O)[C@H](CCCCN)NC(=O)[C@H](Cc1c[nH]c2ccccc12)NC(=O)[C@H](CO)NC(=O)[C@@H]1CCCN1)C(C)C)[C@@H](C)CC)C(=O)N[C@H](C(=O)N[C@@H](CCCCN)C(=O)N[C@@H](C)C(=O)NCC(=O)N1CCC[C@H]1C(=O)N[C@H](C(=O)N[C@H](C(=O)N[C@@H](CCC(=O)O)C(=O)N[C@H](C(=O)N[C@@H](CC(C)C)C(=O)NCC(=O)O)C(C)C)C(C)C)C(C)C)[C@@H](C)CC  MIC (Pseudomonas aeruginosa): 8 µM (≈ 24.5 µg/mL)
O=C1C=C(Br)/C(=C/Br)O1  inhibition (lasR; reporter gene, antagonist, lasB-gfp(ASV) reporter; Escherichia coli; 100 µM): 90%
CC(C)[C@H](NC(=O)CNC(=O)CNC(=O)[C@H](Cc1ccc(O)cc1)NC(=O)[C@H](CS)NC(=O)[C@@H](NC(=O)[C@H](Cc1c[nH]c2ccccc12)NC(=O)[C@H](Cc1ccccc1)NC(=O)[C@H](CS)NC(=O)[C@H](Cc1c[nH]c2ccccc12)NC(=O)[C@@H](N)CCCNC(=N)N)C(C)C)C(=O)N[C@@H](CS)C(=O)N[C@@H](Cc1ccc(O)cc1)C(=O)N[C@@H](CCCNC(=N)N)C(=O)N[C@@H](CCCNC(=N)N)C(=O)N[C@@H](CS)C(=O)N[C@@H](CCCNC(=N)N)C(=O)O  MIC (Staphylococcus aureus): > 128 µM
COc1ccc(Nc2nc(Nc3ccc(OCC[18F])cc3)ncc2Br)cc1  tissue uptake (S180 tumour-bearing mice, lung; intravenous, 15 min): 8.96 ± 1.35 %ID/g
CC[C@H](C)[C@H](NC(=O)[C@@H]1CCCN1C(=O)[C@H](CS)NC(=O)[C@H](Cc1ccc(O)cc1)NC(=O)[C@@H]1CCCN1C(=O)[C@H](CC(C)C)NC(=O)[C@H](CCCNC(=N)N)NC(=O)[C@H](CO)NC(=O)[C@H](Cc1ccc(O)cc1)NC(=O)[C@H](Cc1ccccc1)NC(=O)[C@H](CC(N)=O)NC(=O)[C@H](CCCNC(=N)N)NC(=O)[C@H](CS)NC(=O)[C@H](Cc1ccc(O)cc1)NC(=O)[C@H](CO)NC(=O)CNC(=O)[C@H](CO)NC(=O)[C@@H]1CCCN1C(=O)[C@H](CC(C)C)NC(=O)[C@H](Cc1ccc(O)cc1)NC(=O)[C@H](C)NC(=O)[C@@H]1CCCN1C(=O)[C@H](CCCNC(=N)N)NC(=O)CN)C(=O)N[C@@H](CCCNC(=N)N)C(=O)NCC(=O)NCC(=O)N[C@@H](Cc1c[nH]cn1)C(=O)N[C@@H](CS)C(=O)N[C@@H](CCCNC(=N)N)C(=O)O  MIC (Staphylococcus aureus): 8 µM (≈ 27.6 µg/mL)
CCCCCCCCCC(=O)CC(=O)NC1CCCCC1=O (centres unmarked)  activation (lasR; lasI-gfp reporter, partial agonist; Pseudomonas aeruginosa PAO-JP2; 400 µM): 45%

Some of these lines once more:
CCC(=O)OC1C(=O)C2(C)C(O)CC3OCC3(OC(C)=O)C2C(OC(=O)c2cccc(OC(F)(F)F)c2)C2(O)CC(OC(=O)C(O)C(C=C(C)C)NC(=O)OC(C)(C)C)C(C)=C1C2(C)C (centres unmarked)  IC50 (CFPAC-1; cytotoxicity): 0.75 nM
